Measurements from different studies.
Numbered parts are unrelated; each lists some results of a single study.

Study 1 — method: protein-binding microarray; form: double-stranded DNA, one strand shown; matrix: in vitro; concentration: not given; reading: higher = stronger binding; quantity: E-score
Target: Protein max, full length (MAX, Homo sapiens, UniProt P61244-2, residues 1-151)
Notes: k-mer, scored over probes, only values ≥0.25
ATGCACAC: 0.375
AACTCACG: 0.279
CGCGCGGA: 0.276

Study 2 — method: protein binding microarray; form: double-stranded DNA, one strand shown; matrix: in vitro; concentration: not given; baseline: not given; reading: higher = stronger binding; quantity: E-score
Target: Histone acetyltransferase KAT6A, winged helix 2, GST fusion (KAT6A, Homo sapiens, UniProt Q92794, residues 85-181)
Notes: 8-mer, flanks averaged, mean of 2 arrays, mostly near background
Target sequence (chain): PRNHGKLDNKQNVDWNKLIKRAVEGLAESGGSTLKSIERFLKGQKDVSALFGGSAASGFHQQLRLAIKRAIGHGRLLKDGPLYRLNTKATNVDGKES
GATTACCC: -0.0298
GGCTTGCA: 0.116
CCCAGAGC: 0.0361
CATGGGAA: 0.038

Study 3 — method: universal PBM; form: double-stranded DNA, one strand shown; matrix: in vitro; concentration: 600 nM; reading: higher = stronger binding; quantity: E-score
Target: Sal-like protein 4, full length isoform A (SALL4, Homo sapiens, UniProt Q9UJQ4, residues 1-1053)
Sequence of UniProt Q9UJQ4 (whole entry, looked up): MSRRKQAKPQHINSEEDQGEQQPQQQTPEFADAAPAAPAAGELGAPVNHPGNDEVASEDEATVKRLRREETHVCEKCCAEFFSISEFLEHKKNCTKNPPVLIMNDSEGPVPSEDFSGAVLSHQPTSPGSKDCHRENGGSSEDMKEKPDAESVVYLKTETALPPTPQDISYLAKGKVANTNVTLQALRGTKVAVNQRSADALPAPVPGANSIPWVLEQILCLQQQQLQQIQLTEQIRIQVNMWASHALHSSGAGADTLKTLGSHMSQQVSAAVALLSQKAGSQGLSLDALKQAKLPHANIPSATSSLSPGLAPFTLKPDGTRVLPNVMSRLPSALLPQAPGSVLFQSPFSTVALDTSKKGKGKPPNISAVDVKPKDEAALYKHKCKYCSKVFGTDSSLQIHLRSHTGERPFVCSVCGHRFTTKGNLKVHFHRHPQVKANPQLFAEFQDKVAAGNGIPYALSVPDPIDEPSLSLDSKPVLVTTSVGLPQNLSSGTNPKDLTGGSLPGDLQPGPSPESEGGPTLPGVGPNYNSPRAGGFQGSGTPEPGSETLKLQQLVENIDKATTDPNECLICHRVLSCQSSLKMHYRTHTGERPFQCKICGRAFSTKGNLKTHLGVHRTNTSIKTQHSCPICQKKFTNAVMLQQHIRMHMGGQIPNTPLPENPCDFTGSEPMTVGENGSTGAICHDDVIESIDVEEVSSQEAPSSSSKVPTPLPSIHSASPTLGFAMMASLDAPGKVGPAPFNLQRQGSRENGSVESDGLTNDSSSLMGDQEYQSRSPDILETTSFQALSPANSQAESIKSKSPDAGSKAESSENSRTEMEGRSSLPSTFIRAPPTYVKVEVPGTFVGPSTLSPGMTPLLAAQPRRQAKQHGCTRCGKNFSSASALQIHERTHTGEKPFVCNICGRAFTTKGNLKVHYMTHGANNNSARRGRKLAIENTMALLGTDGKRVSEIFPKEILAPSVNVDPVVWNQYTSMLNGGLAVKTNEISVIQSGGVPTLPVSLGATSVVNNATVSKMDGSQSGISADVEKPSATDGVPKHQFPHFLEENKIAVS
Notes: 8-mer, flanks averaged, mean of replicates
AAAAAACT: 0.166
AGTCCGCA: -0.13
GGACCGAC: -0.344
ATGCAATG: 0.0742
CTGCGGGA: -0.315

Further values, each from its own experiment
PhoQ, residues 284 288 289 292 302 303 QWQEDG  fold induction (PhoP, residues 12 14 15 18 19 LFHKL (Escherichia coli, UniProt P23836); Sort-seq, refers to: YFP reporter; E. coli; PhoQ-PhoP variant library, together with: 10 µM Mg2+; baseline: high Mg2+ state, higher = stronger signaling): 8.92

Repeated from above (study 2):
GGCTTGCA: 0.116
CCCAGAGC: 0.0361
